Measurements of several laboratories.
Each numbered part is a random draw from the data of one study; scales do not carry over between parts.

Series 1
Target: Replicase polyprotein 1ab, polymerase (rep, Severe acute respiratory syndrome coronavirus 2, UniProt P0DTD1)
Effect on: enzyme activity
Action: inhibitor
Concentration: 20 µM
| SMILES | inhibition |
| --- | --- |
| CCN(c1ccccc1)c1cc(=NC)n(C)c(C)n1 | -0.18% |
| CO/N=C1\CN(c2nc3c(cc2F)c(=O)c(C(=O)O)cn3C2CC2)CC1CN (stereo not shown) | 3.26% |
| C[C@]12CC[C@@H](O)C[C@@H]1CC[C@@H]1[C@@H]2CC[C@]2(C)C(=O)CC[C@@H]12 | 5.43% |
| O=C(Cc1ccc(-c2ccc(OCCN3CCOCC3)cc2)cn1)NCc1ccccc1 | 0.82% |
| COC(=O)[C@@H](N)Cc1ccc(O)c(O)c1 | 2.12% |
| O=C1Nc2ccccc2C12OCC1(CO2)COC2(OC1)C(=O)Nc1ccccc12 (stereo not shown) | 3.85% |
| C[C@@H]1C/C=C/C=C/C=C/C=C/[C@H](O[C@@H]2O[C@H](C)[C@@H](O)[C@H](N)[C@@H]2O)C[C@@H]2O[C@](O)(C[C@@H](O)C[C@H]3O[C@@H]3/C=C/C(=O)O1)C[C@H](O)[C@H]2C(=O)O | -11.1% |
| Cc1cc(C(=O)Nc2cc(Oc3ccc4nc(NC(=O)C5CC5)cn4n3)ccc2C)n(C)n1 | -7.9% |
| COc1cc2ncnc(Oc3cccc(NC(=O)Nc4cc(C(C)(C)C(F)(F)F)on4)c3)c2cc1OC | -1.1% |
| CCc1nn(CCO)c(CC)c1Oc1cc(C#N)cc(C#N)c1 | -1.76% |
| Nc1[nH]cnc2ncnc1-2 | 1.33% |
| Oc1ccc2c3c1O[C@H]1c4[nH]c5c(c4C[C@@]4(O)[C@@H](C2)N(CC2CC2)CC[C@]314)C[C@@]1(O)[C@H]2Cc3ccc(O)c4c3[C@@]1(CCN2CC1CC1)[C@H]5O4 | -3.36% |
| CC(=O)Oc1c(C)cc(OCC(O)CNC(C)C)c(C)c1C (stereo not shown) | 3.65% |
| NCCCC(=O)O | -1.49% |
| CC(=O)OCC(=O)[C@@]12OC3(CCCC3)O[C@@H]1C[C@H]1[C@@H]3CCC4=CC(=O)C=C[C@]4(C)[C@@]3(F)[C@@H](O)C[C@@]12C | -1.39% |

Series 2
Target: Sal-like protein 4, full length isoform A (SALL4, Homo sapiens, UniProt Q9UJQ4, residues 1-1053)
Chain of UniProt Q9UJQ4 (whole entry, looked up): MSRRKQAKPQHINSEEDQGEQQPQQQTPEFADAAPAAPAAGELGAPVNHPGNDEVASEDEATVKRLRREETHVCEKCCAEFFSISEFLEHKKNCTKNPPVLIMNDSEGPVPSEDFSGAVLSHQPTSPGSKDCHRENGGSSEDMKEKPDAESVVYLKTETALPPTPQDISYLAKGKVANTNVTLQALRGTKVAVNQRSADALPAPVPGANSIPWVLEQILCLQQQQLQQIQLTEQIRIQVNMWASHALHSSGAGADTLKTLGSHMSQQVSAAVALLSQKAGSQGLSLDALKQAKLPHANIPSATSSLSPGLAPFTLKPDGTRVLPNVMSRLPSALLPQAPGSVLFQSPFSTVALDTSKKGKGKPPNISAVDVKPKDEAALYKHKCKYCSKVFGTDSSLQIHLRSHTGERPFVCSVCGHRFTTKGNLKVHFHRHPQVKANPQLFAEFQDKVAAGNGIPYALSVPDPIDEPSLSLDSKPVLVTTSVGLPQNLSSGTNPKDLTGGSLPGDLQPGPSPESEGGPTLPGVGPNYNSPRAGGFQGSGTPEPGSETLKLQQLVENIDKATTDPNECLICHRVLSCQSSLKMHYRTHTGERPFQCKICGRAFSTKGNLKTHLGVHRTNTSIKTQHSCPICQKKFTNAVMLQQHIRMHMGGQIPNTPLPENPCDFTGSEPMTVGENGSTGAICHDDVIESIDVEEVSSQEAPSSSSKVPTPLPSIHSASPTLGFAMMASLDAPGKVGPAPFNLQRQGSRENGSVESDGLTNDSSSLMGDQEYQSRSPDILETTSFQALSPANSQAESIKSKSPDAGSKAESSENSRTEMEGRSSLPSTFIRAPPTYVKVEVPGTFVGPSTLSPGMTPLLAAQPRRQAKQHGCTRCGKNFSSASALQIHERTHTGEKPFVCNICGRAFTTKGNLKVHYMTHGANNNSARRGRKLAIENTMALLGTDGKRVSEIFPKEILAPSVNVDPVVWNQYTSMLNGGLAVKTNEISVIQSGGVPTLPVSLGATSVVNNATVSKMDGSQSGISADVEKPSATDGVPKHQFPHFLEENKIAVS
Method: universal PBM
Molecule type: double-stranded DNA, one strand shown
Sample: in vitro
Concentration: 600 nM
Setting: 8-mer, flanks averaged, mean of replicates
Direction: higher = stronger binding
| Sequence | E-score |
| --- | --- |
| CTGAGCGC | -0.323 |
| AAGACACC | -0.133 |
| AAATTGCA | 0.193 |
| AGGGGCAT | -0.0435 |
| AACATCGC | -0.191 |
| AAGCCCCC | -0.401 |
| GCGGTTTA | -0.119 |
| CGCAATAC | 0.101 |

Series 3
Cell line: HEK-293T
Effect on: pseudovirus infection
Method: FDA-approved drug library screen
Organism: VSV pseudotyped with SARS-CoV-2 spike
Concentration: 10 µM
Time: 16 h
Baseline: vehicle-treated
| SMILES | GFP-positive cells |
| --- | --- |
| CCN(CC)CCNC(=O)c1c(C)[nH]c(/C=C2\C(=O)Nc3ccc(F)cc32)c1C | 392% |
| CNS(=O)(=O)Cc1ccc2[nH]cc(CCN(C)C)c2c1 | 105% |
| COCC(=O)Nc1c(I)c(C(=O)NCC(O)CO)c(I)c(C(=O)N(C)CC(O)CO)c1I (stereo not shown) | 103% |

Series 4
Target: RNA binding protein fox-1 homolog 2, RRM domain, GST-SBP tag (RBFOX2, Homo sapiens, UniProt O43251-10, residues 100-194)
Method: RNA Bind-n-Seq
Molecule type: RNA
Sample: in vitro
Concentration: 365 nM
Setting: natural RNA segment, single round, ends assumed
Baseline: no-protein control
Direction: higher = stronger binding
All sequences stand within: GGGAGUUCUACAGUCCGACGAUC … UGGAAUUCUCGGGUGCCAA
Construct (chain): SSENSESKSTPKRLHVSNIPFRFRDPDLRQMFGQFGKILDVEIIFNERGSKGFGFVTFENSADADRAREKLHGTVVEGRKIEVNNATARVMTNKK
| Sequence | RBNS enrichment (R) |
| --- | --- |
| GUAUAAGAAACUGCAUCCUGCCUCCAGCCCCCUUGGGGCAGGGAUUGGCUUGGAACAGAGGUUGGCCCCGCCAGGCCGGGGAAGGUUGGAGAAGCCCCCAGGAGGAGGGC | 0.837 |
| UUGGGCUCAUGUCCUGGGUUUUGGCUCUUUAAUGAUUACUCCAGGCCAGCAUUUAGUCGUUUGAGAAUUGUAGCCUGUUGUUUUCGCUGUGACUUGGGUCUCAGUGCUAG | 1.32 |
| GAACGUGUGUUUUCUUAGUGUUAGAAGCCAGGCCCUGAGUCCCCAGCACUCACCUGAACUGUGGCUGAUUUGGUCCCAGUCCAGCUGGGGAGGUGUUUGGCUGACAAGGA | 0.288 |
| AUUAACUAUAACAAUCACUGGCUACCGAAGUAAACUGAUGUACUGAAUUCCAUAAUACAUAACAUUCAAUUUUUACCACUUCUGUUUAGCGAACUUGUAUACUUAUUUUC | 0.55 |
| AAUUUUGUCAUGUUUCUCAAGCAGUUUUUCUGAGUAGUUUCUGAGGAGGAACAAAUUACAAGUGUACCCAAUAACUGAAAAUGUUUUAACUCACUCUCAUUUGUAAGCAG | 0.321 |
| GAGUGGUGGCCUAUUUCAGCUGCUUUGACAAAAUGACUGGCUCCUGACUUAACGUUCUAUAAAUGAAUGUGCUGAAGCAAAGUGCCCAUGGUGGCGGCGAAGAAGAGAAA | 0.867 |
| GCUGCAAGGGCCAGGCCAGAAAAGGGCGGGCCUGCAGCCUGCACCCCCCACCUUCCCCAACCCUUCCUCAAGAGCUGAAGGGAUCCCAGCCCCUAGGUGGGCAGAGGCAG | 0.451 |
| UUGCUGUAUUUACUGAAAUCUCUGGCACAGAAGGAAGUGUGUUUGCCUCACACACCAUUUGUCCCAGACCAGUGGCAUUAGGCCAUAUAUUCUCUUCUAGUGUUUGCUUA | 0.431 |
